# Assay results of several laboratories.
# Every numbered part comes from another study and shows a few of its results, in no order. Changes are numbered by the printed parent chain.

# Study 1
# Target: Prothrombin, mature alpha-thrombin (F2, Homo sapiens, UniProt P00734)
# Method: aptamer microarray, sandwich
# Molecule type: DNA with 2'F-ANA
# Matrix: in vitro
# Tested at: 200 nM
# Notes: whole 15-mer aptamer, many near background
# Added: Cy3 exosite-II aptamer, 400 nM
# Direction: higher = stronger binding
# Strand: GGTTGGTGTGGTTGG
Modification,mean fluorescence intensity [a.u.]
2'F-ANA at 3 9 10 11 12 14,440
2'F-ANA at 1 2 3 4 5 8 10 12 14,49.1
2'F-ANA at 1 2 3 5 6 8 12 13 15,141
2'F-ANA at 1 4 6 8 11 13 14 15,65.2
2'F-ANA at 2 3 4 7 8 10 11,289
2'F-ANA at 3 4 6 8 10 12 13 15,205
2'F-ANA at 4 5 7 8 9 11 12,134
2'F-ANA at 1 3 4 5 6 8 10 11 12 13,52.3
2'F-ANA at 5 7 15,77.9
2'F-ANA at 2 8 9 10 14,94.4
2'F-ANA at 1 3 5 6 8 9 11 12 15,104
2'F-ANA at 3 4 5 6 9 12 13 15,99.8
2'F-ANA at 1 2 7 8 10 12 13 15,67.3
2'F-ANA at 2 3 4 5 7 9 10 12 14 15,134
2'F-ANA at 2 3 5 8 11 12 13 15,151
2'F-ANA at 1 2 5 7 8 9 10 11 12 15,82.4
2'F-ANA at 3 6 8 10 13 14 15,363
2'F-ANA at 1 2 6 7 8 13,146
2'F-ANA at 1 4 6 7 9 11,87.5
2'F-ANA at 1 2 7 8 10 11,52.2
2'F-ANA at 3 5 7 9 11 12 13,161
2'F-ANA at 1 2 3 6 7 8 14,79.1
2'F-ANA at 3 6 7 8 11 12 13 14,549
2'F-ANA at 3 4 6 11 12 13 14,281
2'F-ANA at 4 5 9 12 13,84.2

# Study 2
# Target: UBE2S UBC core domain (UniProt Q16763)
# Method: yeast two-hybrid
# Matrix: yeast
# Notes: mostly zero background
# Baseline: not given
# Direction: higher = stronger interaction
# B1: SYTL4 RING domain (UniProt Q96C24); chain RGSQHYSDRTCARCQESLGRLSPKTNTCRGCNHLVCRDCRIQESNGTWRCKVCAKEIELKKAT
# B2: RNF133 RING domain (UniProt Q8WVZ7); chain DEEINPNGDSCVICFERYKPNDIVRILTCKHFFHKNCIDPWILPHGTCPICKCDILKVLGIQ
# B3: RNF121 RING domain (UniProt Q9H920); chain MPTKHLSDSVCAVCGQQIFVDVSEEGIIENTYRLSCNHVFHEFCIRGWCIVGKKQTCPYCKEKVDLKRMFS
# B4: MAP3K1 RING domain (UniProt Q13233); chain NSIKDEEEQMCPICLLGMLDEESLTVCEDGCRNKLHHHCMSIWAEECRRNREPLICPLCRSKWRSHDFYS
# B5: RNF19A RING domain (UniProt Q9NV58); chain ISKQIGDFIECPLCLLRHSKDRFPDIMTCHHRSCVDCLRQYLRIEISESRVNISCPECTERFNPHDIR
# B6: DZIP3 RING domain (UniProt Q86Y13); chain PDEEEEEEEPCVICHENLSPENLSVLPCAHKFHAQCIRPWLMQQGTCPTCRLHVLLPEEFP
# B7: DTX2 RING domain (UniProt Q86UW9); chain EELKVPPDEDCIICMEKLSTASGYSDVTDSKAIGSLAVGHLTKCSHAFHLLCLLAMYCNGNKDGSLQCPSCKTIYGEKTGTQ
# B8: ZMIZ2 RING domain (UniProt Q8NF64); chain GTIPGTPGPNGEDGVEQTAIKVSLKCPITFRRIQLPARGHDCRHIQCFDLESYLQLNCERGTWRCPVCNKTALLEGLEVDQYMLGILIYIQNSDYEEITIDPTCSWK
Molecule,lacZ reporter activity
B1 (SYTL4 RING domain),0
B2 (RNF133 RING domain),0
B3 (RNF121 RING domain),0
B4 (MAP3K1 RING domain),0
YQNEVDDDLVCHICLQPLLQPLDTPCGHTFCYKCLRNFLQEKDFCPLDRKRLHFKLCKK (LNX2 RING domain (UniProt Q8N448)),0
B5 (RNF19A RING domain),0
NLSELTPYILCSICKGYLIDATTITECLHTFCKSCIVRHFYYSNRCPKCNIVVHQTQPLY (PCGF6 RING domain (UniProt Q9BYE7)),0
B6 (DZIP3 RING domain),0
B7 (DTX2 RING domain),0
B8 (ZMIZ2 RING domain),0

# Study 3
# Target: RNA binding protein fox-1 homolog 2, RRM domain, GST-SBP tag (RBFOX2, Homo sapiens, UniProt O43251-10, residues 100-194)
# Method: RNA Bind-n-Seq
# Molecule type: RNA
# Matrix: in vitro
# Tested at: 365 nM
# Notes: natural RNA segment, single round, ends assumed
# Baseline: no-protein control
# Direction: higher = stronger binding
# Construct (chain): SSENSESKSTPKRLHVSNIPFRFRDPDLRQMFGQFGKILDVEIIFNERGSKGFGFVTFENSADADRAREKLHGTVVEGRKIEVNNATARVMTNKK
Strand,RBNS enrichment (R)
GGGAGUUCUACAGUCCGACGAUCAUGUAGCAGGGUAAAAGAAAAUUCAUUUUCUAACAAAAUACUCACAUUCAUGAUCUACUGUAGGAGAAUAUUUUCUAUGCAUUUAACAUUAUUAAUAUUGGUUUUAACUUUGGAAUUCUCGGGUGCCAA,1.82
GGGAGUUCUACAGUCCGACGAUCUCCUGCCCAGACCUGCGGUCCCAGCAUCCCCCAGAGCCAGGGAACAGGCCCAGCGGGAGGGGGUUUUAUGUUUUGUUUCAAACAGAAAACACAACCUUAUUUUUCUUUACUGGAAUUCUCGGGUGCCAA,0.354
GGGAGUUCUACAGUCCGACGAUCCUAGUGAUCCCAGCCCAAGAGGUUCAGGGAAGUCUUAUGAAGGAUUUGUCUCAGCUGAGCCUGACAGGACAAGCAUAUAGAAAGACAAGAGGGGGAGAGAGCAGGGCAUUUGGAAUUCUCGGGUGCCAA,0.879
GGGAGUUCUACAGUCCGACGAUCGCCACAUUUUCUUAAUCCAGUCUAUCAUUGUUGGACAUUUGGGUUGGUUCCAAGUCUUUGCUAUUGUGAAUAAUGCCGCAAUAAACAUACGUGUGCAUGUGUCUUUAUAGUGGAAUUCUCGGGUGCCAA,0.706
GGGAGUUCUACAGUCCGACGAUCUCAUUUUUACCAGUCUGAGUGACAGGUCCCCUUCGCUCAUCAUUCAGAUGGCUUUCCAGAUGACCAGGACGAGUGGGAUAUUUUGCCCCCAACUUGGCUCGGCAUGUGAAUGGAAUUCUCGGGUGCCAA,2.71
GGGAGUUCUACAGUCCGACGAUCCUUGUCUUACAAUGUUACCUUUAAGUGAAUCACAUAAUUGUCUUUGGAACUUGGUCUCCCAACACUUAUUGUGAUUGCAAAGUGUUUACCAGAUAUUUGAUGAGGUGCUAUGGAAUUCUCGGGUGCCAA,0.32
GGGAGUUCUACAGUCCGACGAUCCCAUGUCCAAAUAAUGAGCGUAUUUUCAUGUGGUCUUCACUGCAUUUGGUUUUGUUUCUGAUUUCAUGUUCCUUUGAGGUACAGUCAGAUGAAAAUGCUGAGUUCUGAGAUGGAAUUCUCGGGUGCCAA,0.626
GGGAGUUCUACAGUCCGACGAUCACUUACACUGUUGACAUCUAUUUUCUGAAGUGUGUUUAAAUUAUUCAGUGCUAAUCAUUGUUUUUUCCUUUGUAAAUGUUGAUUCAGAAAAGGAAAGCACAGGCUAAGCAUGGAAUUCUCGGGUGCCAA,0.745
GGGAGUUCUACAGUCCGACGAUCCCAGUGUGUCACCAGCCCUCAGCAGAAACCGAAAGAGAAAGAACGGAAACACGGAGUUUGGGCUCUGUUGGCUAAGGUGUAACACUUAAAGCAAUUUUCUCCCAUUGUGCUGGAAUUCUCGGGUGCCAA,0.444
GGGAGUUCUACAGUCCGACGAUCAGCUGUUUUAGCUGAGGGACGUGGUGCCGACGUCCCCAAACCUAGCUAGGCUAAGUCAAGAUCAACAUUCCAGGGUUGGUAAUGUUGGAUGAUGAAACAUUCAUUUUUACUGGAAUUCUCGGGUGCCAA,0.239
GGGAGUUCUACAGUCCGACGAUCGUUACACUGACAACCCACAUCUUGGCUUGUGAUGGAUCAAAUCUUUUAUGAAGCCUUCAGGGGGACUCAGUAUUGCUGGCCUUUGUUGUAGCCUGUGGUUCCUUCGGAGUUGGAAUUCUCGGGUGCCAA,0.242
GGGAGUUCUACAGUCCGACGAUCCUCUUUAUGCUGCAAAGACCUGGAUGAUGUUUGGUAACUAUAGAAAAAUAGAAAUUACACUCAGGAUCACUGUUACUGCUAUUGCCACUGAUGAUUCCUGCAAAAAUAUAUGGAAUUCUCGGGUGCCAA,0.608

# Study 4
# Target: CCNF, cyclin fold, Cln2 fusion (human)
# Method: yeast growth competition, sequencing
# Matrix: yeast
# Notes: strong parent motif
# Baseline: not given
# Direction: higher = stronger binding
# Starting sequence: RBL2 docking peptide (human); STTRRRLFVENDS; partner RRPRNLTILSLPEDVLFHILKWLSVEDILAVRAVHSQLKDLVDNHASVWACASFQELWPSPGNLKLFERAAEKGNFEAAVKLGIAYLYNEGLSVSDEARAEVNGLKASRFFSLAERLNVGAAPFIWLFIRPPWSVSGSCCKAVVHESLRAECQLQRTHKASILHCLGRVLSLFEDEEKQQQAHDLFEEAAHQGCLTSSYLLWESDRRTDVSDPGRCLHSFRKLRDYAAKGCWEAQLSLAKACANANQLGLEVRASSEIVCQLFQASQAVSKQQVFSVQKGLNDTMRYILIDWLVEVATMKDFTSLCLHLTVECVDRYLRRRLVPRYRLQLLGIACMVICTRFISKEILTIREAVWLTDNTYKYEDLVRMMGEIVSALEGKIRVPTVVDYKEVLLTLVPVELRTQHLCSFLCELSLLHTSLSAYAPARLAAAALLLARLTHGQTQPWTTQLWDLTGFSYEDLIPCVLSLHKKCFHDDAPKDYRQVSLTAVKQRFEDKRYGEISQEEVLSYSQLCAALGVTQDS
Variant,normalised enrichment score
L7T,0.706
V9W,10.1
F8V,4.87
R4N,6.02
V9D,7.52
S1C,9.98
R5C,1.42
R5G,0.0756
F8M,3.76
R6V,7.13
R4E,1.42
T2E,6.88
R6H,1.87
L7Q,0.515
R5T,2.07
R6T,4.17

# Study 5
# Target: ABI1, truncated, D143A, DHFR fusion (Arabidopsis thaliana)
# Method: DHFR PCA, deep sequencing
# Matrix: yeast
# Notes: methotrexate growth selection, single substitutions
# Added: (+)-ABA 2500 µM
# Baseline: wild-type fitted maximum
# Direction: higher = stronger binding
# Starting sequence: PYL1, truncated, DHFR fusion (Arabidopsis thaliana); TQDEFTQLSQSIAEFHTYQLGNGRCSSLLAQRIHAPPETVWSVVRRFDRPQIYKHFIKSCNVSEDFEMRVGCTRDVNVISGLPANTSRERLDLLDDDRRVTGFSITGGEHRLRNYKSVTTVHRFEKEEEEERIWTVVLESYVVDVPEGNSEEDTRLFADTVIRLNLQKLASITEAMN
Variant,relative binding score [%]
D153A,74
H110R,29.4
T106H,98.5
Y141F,92.2
Q51D,101
A158G,89.5
R88Y,99.4
E152I,97
D97M,104
D96H,88.8

# Study 6
# Target: Histone acetyltransferase KAT6A, winged helix 2, GST fusion (KAT6A, Homo sapiens, UniProt Q92794, residues 85-181)
# Method: protein binding microarray
# Molecule type: double-stranded DNA, one strand shown
# Matrix: in vitro
# Tested at: not given
# Notes: 8-mer, flanks averaged, mean of 2 arrays, mostly near background
# Baseline: not given
# Direction: higher = stronger binding
# Target sequence (chain): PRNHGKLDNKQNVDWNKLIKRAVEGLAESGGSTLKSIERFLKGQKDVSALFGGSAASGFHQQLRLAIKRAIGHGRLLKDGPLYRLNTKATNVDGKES
Strand,E-score
CACCCCGA,-0.00528
CCCCATCC,0.139
AGTCATGA,-0.00256
TTAATGAA,0.222
ATAAATCC,0.0181
ACTGCCTA,-0.0926
CGATCAGC,0.133
AGAAGGTG,0.0269
AAGCCTAT,-0.0812
CGCGATAG,0.0823
AGCTAGTG,-0.0201
GCCGTTCA,-0.0274
ATTTTGTG,0.148
GATCTAAA,0.1
AGACCCTG,-0.0703
ATCTTAAA,0.112
ACGTGGTG,-0.205
CAGACCAC,-0.00621
GCATGACC,-0.0701
